# Measurements of several laboratories.
# Lines come from different studies, so protocols differ. Numbers after ± are the reported error.
# rep main protease: Replicase polyprotein 1ab, main protease (rep, Severe acute respiratory syndrome coronavirus 2, UniProt P0DTD1)
SMILES,target or system,test,system,conditions,scale,endpoint,value
C#C[C@]1(CO)O[C@@H](n2ccc(N)nc2=O)C[C@@H]1O,HIV-1 T215F,MTT,MT4,,,IC50,0.03 ± 0.0139 µM
CNC(=O)[C@@H](NC(=O)[C@H](CC(C)C)[C@H](O)C(=O)NO)C(C)(C)C,C2C12,,,"10 µM, added: KA venom",relative to: venom alone,viability difference,42.7%
Cn1cnc(Cn2c(=O)[nH]/c(=N\c3cc4cn(C)nc4cc3Cl)n(Cc3cc(F)c(F)cc3F)c2=O)n1,,,"human, normal renal function","oral, 375 mg",,"dry mouth TEAE, Severe severity",0%
C=C(C)[C@@H]1CC[C@]2(C(=O)NCCCCCCCCNC(=O)[C@H](CCC(N)=O)NC(=O)OC(C)(C)C)CC[C@]3(C)[C@H](CC[C@@H]4[C@@]5(C)CC[C@H](OC(=O)CC(C)(C)C(=O)O)C(C)(C)[C@@H]5CC[C@]43C)[C@@H]12,Human immunodeficiency virus 1,"viral replication, ELISA","MT4, NL43",96 h,,IC50,≤ 0.05 µM
CC[C@H](C)[C@H](NC(=O)[C@H](CC(C)C)NC(=O)[C@H](Cc1c[nH]c2ccccc12)NC(=O)[C@H](CCC(N)=O)NC(=O)[C@@H](NC(=O)[C@H](Cc1ccccc1)NC(=O)[C@H](C)NC(=O)[C@H](CCCCNC(=O)COCCOCCNC(=O)COCCOCCNC(=O)CC[C@H](NC(=O)CCCCCCCCCCCCCCCCCCC(=O)O)C(=O)O)NC(=O)[C@H](CCC(N)=O)NC(=O)[C@H](C)NC(=O)[C@@H](NC(=O)[C@H](CCCCN)NC(=O)[C@H](CC(=O)O)NC(=O)[C@H](CC(C)C)NC(=O)C(C)(C)NC(=O)[C@@H](NC(=O)[C@H](CO)NC(=O)[C@H](Cc1ccc(O)cc1)NC(=O)[C@H](CC(=O)O)NC(=O)[C@H](CO)NC(=O)[C@@H](NC(=O)[C@H](Cc1ccccc1)NC(=O)[C@@H](NC(=O)CNC(=O)[C@H](CCC(=O)O)NC(=O)C(C)(C)NC(=O)[C@@H](N)Cc1ccc(O)cc1)[C@@H](C)O)[C@@H](C)O)[C@@H](C)CC)[C@@H](C)CC)C(C)C)C(=O)N[C@@H](C)C(=O)NCC(=O)NCC(=O)N1CCC[C@H]1C(=O)N[C@@H](CO)C(=O)N[C@@H](CO)C(=O)NCC(=O)N[C@@H](C)C(=O)N1CCC[C@H]1C(=O)N1CCC[C@H]1C(=O)N1CCC[C@H]1C(=O)N[C@@H](CO)C(N)=O,,,healthy human,"0.25 mg, single ascending dose",,severe hypoglycaemia,0%
C=C(C)[C@@H]1CC[C@]2(C(=O)NCCCCCCCCCNC(=O)[C@H](CC(N)=O)NC(=O)OC(C)(C)C)CC[C@]3(C)[C@H](CC[C@@H]4[C@@]5(C)CC[C@H](OC(=O)CC(C)(C)C(=O)O)C(C)(C)[C@@H]5CC[C@]43C)[C@@H]12,Human immunodeficiency virus 1,"viral replication, ELISA","MT4, NL43",96 h,,IC50,≤ 0.05 µM
C=C[C@]1(CO)O[C@@H](n2cnc3c(N)nc(N)nc32)C[C@@H]1O,HIV-1 M184V,MTT,MT4,,,IC50,> 1 µM
Nc1ncnc2c([C@@H]3N[C@H](CO)[C@@H](O)[C@H]3O)c[nH]c12,Marburg marburgvirus,viral glycoprotein surface expression,"HeLa, Musoke",50 µM,,inhibition,97.7%
COc1ccc(COc2ccccc2C(=O)Nc2ccccc2OC)cc1,HIV-1,"viral replication, refers to: RT activity","H9 expressing A3G, LAI, X4-tropic wild type",day 7,,IC50,> 100 µM
N#CC(C#N)=NNc1ccc(OC(F)(F)F)cc1,Plasmodium falciparum,parasite growth,K1,,,IC50,18.3 µM
COc1ccccc1NC(=O)c1ccccc1Sc1ccc(N)cc1,HIV-1,"viral replication, refers to: RT activity","H9 expressing A3G, LAI, X4-tropic wild type",day 7,,IC50,20 µM
CC[C@]1(CO)O[C@@H](n2cnc3c(N)nc(N)nc32)C[C@@H]1O,HIV-1 T215F,,MT4,,,IC50,0.0259 ± 0.0061 µM
Cc1nc(C(CN)NC(=O)c2ccc(-c3ccc4c(c3)OCO4)[nH]2)sc1CO (stereo not drawn),human immunodeficiency virus 1,viral replication,PBMC,168 h,,IC50,2.8 ± 0.6 µM
CCO.C[C@H]1c2cccc(O)c2C(O)=C2C(=O)[C@]3(O)C(O)=C(C(N)=O)C(=O)[C@@H](N(C)C)[C@@H]3[C@@H](O)[C@@H]21.C[C@H]1c2cccc(O)c2C(O)=C2C(=O)[C@]3(O)C(O)=C(C(N)=O)C(=O)[C@@H](N(C)C)[C@@H]3[C@@H](O)[C@@H]21.Cl.Cl.O,rep main protease,"reporter gene (mKate2), inhibitor",,20 µM,,inhibition,0.901%
COc1ccccc1NC(=O)c1ccccc1Sc1ccc([N+](=O)[O-])cc1,HIV-1,"viral replication, refers to: RT activity","H9 expressing A3G, LAI, X4-tropic wild type",day 7,,IC50,6 µM
Cc1ccc(-c2ccc(C)cn2)nc1,rep main protease,"reporter gene (mKate2), inhibitor",,20 µM,,inhibition,-0.934%
O=C(Nc1ccc2c(c1)OCO2)c1ccccc1Sc1ccc([N+](=O)[O-])cc1Cl,HIV-1,"viral replication, refers to: RT activity","H9 expressing A3G, LAI, X4-tropic wild type",day 7,,IC50,25 µM
Nc1nc(N)c2ncn([C@H]3C[C@H](O)[C@](CO)(CF)O3)c2n1,HIV-1 M184V,MTT,MT4,,,IC50,> 1 µM

# Some of these lines once more:
SMILES,target or system,test,system,conditions,scale,endpoint,value
C#C[C@]1(CO)O[C@@H](n2ccc(N)nc2=O)C[C@@H]1O,HIV-1 T215F,MTT,MT4,,,IC50,0.03 ± 0.0139 µM
CNC(=O)[C@@H](NC(=O)[C@H](CC(C)C)[C@H](O)C(=O)NO)C(C)(C)C,C2C12,,,"10 µM, added: KA venom",relative to: venom alone,viability difference,42.7%
